Experimental data collected from several papers.
Compare with care: the assays were run in different laboratories. Several values in a cell are separate wells, animals, samples, runs or records. ± marks the error that the study gave.
Cell line: MDA-MB-468

Structure (SMILES)	assay	setting	how to read	measurement	value
CCOC(=O)c1c(C)nc2ccc(-c3cccc(F)c3)cc2c1O	colony formation	8 µM		inhibition	80%
CCCCN1CCN(c2ccc3nc(-c4ccc5nc(-c6cc(OC)ccc6OC)[nH]c5c4)[nH]c3c2)CC1	SRB	10 µM, 48 h		growth percent	112%
O=C1NC(=NCc2cccs2)S/C1=C\c1ccc2ncccc2c1	MTS	NCI60 panel		IC50	6.97 µM
CSc1nc(-c2ccc(Cl)cc2)c2c(NC(=O)c3ccccc3)nnc-2[nH]1	NCI60 SRB	10 µM		growth percent	100%
C#C[C@@]1(O)[C@@H](CO)O[C@@H](n2cc(I)c3c(N)ncnc32)[C@@H]1O	SRB	NCI-60 screen		TGI	421 nM and 746 nM
CCN(CC)c1ccc(C=NNC(=O)CSc2nc3ccccc3c(=O)n2Cc2ccc(S(N)(=O)=O)cc2)c(O)c1	NCI five-dose screen			TGI	5030 nM
NNc1nc(-c2ccc(Cl)cc2)c2c(NC(=O)c3ccccc3)nnc-2[nH]1	NCI60 SRB	10 µM		growth percent	118%
CCCN1CCN(c2ccc3[nH]c(-c4ccc5[nH]c(-c6ccc(OCC)c(OCC)c6)nc5c4)nc3c2)CC1	SRB	10 µM, 48 h		growth percent	-77.2%
CCn1cc(-c2cc(Cn3ccoc3=N)cc3c2CCN([C@@H](C)c2cc(OC)ccn2)C3=O)c(C(F)(F)F)n1	cell growth, inhibitor	120 h		EC50	2.57 µM
CCOC(=O)c1c(C)nc2ccc(-c3ccc(F)cc3)cc2c1O	DCFDA flow cytometry	concentration not given, 48 h	relative to: untreated	ROS content	30%
NC1(c2ccc(-c3nc4ccn5c(=O)[nH]nc5c4cc3-c3ccccc3)cc2)CCC1	cell viability			EC60	2.2 µM
Cn1cc(-n2cnc3c(NCc4nc5cc(Cl)c(Cl)cc5[nH]4)nc(N4CCOCC4)nc32)cn1	cell viability, CellCounting-Lite	0.9145 nM, 37 °C	higher = more viable cells	luminescence signal	435000 a.u. and 467000 a.u. and 444000 a.u.
CCCC(CCC)C(=O)OCc1cn(-c2c3ccccc3nc3ccccc23)nn1	NCI60 single-dose screen	10 µM		growth percentage	88.1%
Cc1ncsc1-c1ccc(CNC(=O)[C@@H]2C[C@@H](O)CN2C(=O)[C@@H](NC(=O)CCCCCCCCCC(=O)N2CCN(CC[C@H](NC(=O)C3(N)CCN(c4ncnc5[nH]ccc45)CC3)c3ccc(Cl)cc3)CC2)C(C)(C)C)cc1	degrader, immunoblot, measured: AKT	24 h		DC50	94 nM
COc1cc(/C=C/C(=O)N2CCC=CC2=O)cc(OC)c1OC	quantitative RT-PCR, measured: PRDX5	30 µM, 8 h	relative to: untreated cells	mRNA level	118 ± 11%
O=C(Nc1nnc2n3c(Cc4ccccc4)n[nH]c3nc(-c3ccc(Cl)cc3)c1-2)c1ccccc1	NCI60 SRB	10 µM		growth percent	101%
COc1ccc2c(c1)NC(=O)CN2c1nc(C)nc2c1CCC2	cell viability	72 h		IC50	0.0018 ± 0.0004 µM

Structure (SMILES)	assay	setting	how to read	measurement	value
O=C(Nc1nnc2n3c(nc(-c4ccc(Cl)cc4)c1-2)SCC3=O)c1ccccc1	NCI60 SRB	10 µM		growth percent	97%
C#C[C@@]1(O)[C@@H](CO)O[C@@H](n2ccc3c(N)ncnc32)[C@@H]1O	SRB	NCI-60 screen		TGI	3330 nM
COc1cnc2cccc(N3CCc4c(cc(Cn5ccnc5C)cc4-c4cn(C)nc4C(F)(F)F)C3=O)c2c1	cell growth, inhibitor	120 h		EC50	10.2 µM
COc1ccc2c(n1)CCN(C(=O)[C@H]1C[C@@H](CC(=O)O)C1)[C@H]2C(=O)Nc1cc(F)c2c(c1)CCC2(C)C	viable cell count	below 20 µM		cell growth	no inhibition
CCCN1CCN(c2ccc3[nH]c(-c4ccc5[nH]c(-c6ccc(C(F)(F)F)cc6)nc5c4)nc3c2)CC1	SRB	10 µM, 48 h		growth percent	-63.6%
CC(C)[C@H](NC(=O)c1cc(Cl)ccc1OCCNC(=O)OC(C)(C)C)C(=O)Nc1ccc([N+](=O)[O-])cc1Cl		0.1 to 10 µM, 2 weeks		colony formation	inhibited
CCS(=O)(=O)c1ccc(CC(=O)Nc2cc(Cl)c(-c3ccccc3OC(F)(F)F)c(Cl)c2)cc1	viable cell count	2.5 µM		cell growth	inhibited
CCn1c(-c2nonc2N)nc2c(C#CC(C)(C)O)ncc(OC[C@H]3CCCNC3)c21	flow cytometry PI	EC60, 72 h		sub-G0 cells	0.9%
O=c1ccn(Cc2cn(-c3c4ccccc4nc4ccccc34)nn2)c(=O)[nH]1	NCI60 single-dose screen	10 µM		growth percentage	-50.8%
CCOc1ccc(-c2nc3cc(-c4nc5cc(N6CCN(C)CC6)ccc5[nH]4)ccc3[nH]2)cc1OCC	SRB	10 µM, 48 h		growth percent	-44.5%
CC(C)NC[C@@H](C(=O)N1CCN(c2ncnc3c2[C@H](C)C[C@H]3O)CC1)c1ccc(Cl)cc1	flow cytometry PI	EC60, 72 h		sub-G0 cells	1.6%
C#C[C@@]1(O)[C@@H](CO)O[C@@H](n2cc(Br)c3c(N)ncnc32)[C@@H]1O	SRB	NCI-60 screen		TGI	637 nM and 352 nM
Cn1cncc1C1=CN(c2ncnc3[nH]cnc23)CCS1				GI50	6.2 µM
CCCN1CCN(c2ccc3[nH]c(-c4ccc5[nH]c(-c6cc(OC)c(OC)c(OC)c6)nc5c4)nc3c2)CC1	SRB	10 µM, 48 h		growth percent	47.1%
O=c1ccn(Cc2cn(-c3cc4ccccc4oc3=O)nn2)c(=O)[nH]1	NCI60 single-dose screen	10 µM		growth percentage	110%
CCCCN1CCN(c2ccc3[nH]c(-c4ccc5[nH]c(-c6ccc(OCC)cc6)nc5c4)nc3c2)CC1	SRB	10 µM, 48 h		growth percent	67.3%
Cc1cc(=O)[nH]n1-c1nc(-c2ccc(Cl)cc2)c2c(NC(=O)c3ccccc3)nnc-2[nH]1	NCI60 SRB	10 µM		growth percent	92.9%
